Published values pooled from the literature.
Each numbered part is a random draw from the data of one study; scales do not carry over between parts. “And” joins repeats or separate records; there may be more than shown.
Sequence of UniProt P10398 (whole entry, looked up): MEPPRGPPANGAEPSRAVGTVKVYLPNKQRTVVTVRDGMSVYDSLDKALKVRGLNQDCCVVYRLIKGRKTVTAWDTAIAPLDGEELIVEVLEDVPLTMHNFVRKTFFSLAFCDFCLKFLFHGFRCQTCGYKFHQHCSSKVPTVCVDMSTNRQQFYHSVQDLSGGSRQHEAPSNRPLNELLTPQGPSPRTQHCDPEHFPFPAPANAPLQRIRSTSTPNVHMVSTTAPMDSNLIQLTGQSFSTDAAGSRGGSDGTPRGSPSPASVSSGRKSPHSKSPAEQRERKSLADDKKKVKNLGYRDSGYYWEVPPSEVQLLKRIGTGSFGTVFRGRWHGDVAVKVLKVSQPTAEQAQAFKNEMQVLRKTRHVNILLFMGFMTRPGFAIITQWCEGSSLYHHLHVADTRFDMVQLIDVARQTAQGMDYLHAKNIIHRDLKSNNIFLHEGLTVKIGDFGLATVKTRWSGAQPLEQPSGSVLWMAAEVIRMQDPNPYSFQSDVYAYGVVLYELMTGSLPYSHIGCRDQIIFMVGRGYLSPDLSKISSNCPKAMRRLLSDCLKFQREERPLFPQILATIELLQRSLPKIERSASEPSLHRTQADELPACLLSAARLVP
Sequence of UniProt P49336 (whole entry, looked up): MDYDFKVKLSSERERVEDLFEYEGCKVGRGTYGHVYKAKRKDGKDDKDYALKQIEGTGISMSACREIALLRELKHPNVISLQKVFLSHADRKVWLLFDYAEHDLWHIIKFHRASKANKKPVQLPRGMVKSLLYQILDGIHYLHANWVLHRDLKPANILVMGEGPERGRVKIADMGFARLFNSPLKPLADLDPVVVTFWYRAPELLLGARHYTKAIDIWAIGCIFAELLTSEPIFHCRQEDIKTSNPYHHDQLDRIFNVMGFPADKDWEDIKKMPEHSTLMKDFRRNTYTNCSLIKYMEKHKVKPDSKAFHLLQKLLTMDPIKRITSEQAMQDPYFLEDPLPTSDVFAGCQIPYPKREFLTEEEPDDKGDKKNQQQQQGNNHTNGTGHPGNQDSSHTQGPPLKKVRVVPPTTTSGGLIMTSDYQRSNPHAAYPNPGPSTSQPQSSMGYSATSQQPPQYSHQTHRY
Sequence of UniProt Q99558 (whole entry, looked up): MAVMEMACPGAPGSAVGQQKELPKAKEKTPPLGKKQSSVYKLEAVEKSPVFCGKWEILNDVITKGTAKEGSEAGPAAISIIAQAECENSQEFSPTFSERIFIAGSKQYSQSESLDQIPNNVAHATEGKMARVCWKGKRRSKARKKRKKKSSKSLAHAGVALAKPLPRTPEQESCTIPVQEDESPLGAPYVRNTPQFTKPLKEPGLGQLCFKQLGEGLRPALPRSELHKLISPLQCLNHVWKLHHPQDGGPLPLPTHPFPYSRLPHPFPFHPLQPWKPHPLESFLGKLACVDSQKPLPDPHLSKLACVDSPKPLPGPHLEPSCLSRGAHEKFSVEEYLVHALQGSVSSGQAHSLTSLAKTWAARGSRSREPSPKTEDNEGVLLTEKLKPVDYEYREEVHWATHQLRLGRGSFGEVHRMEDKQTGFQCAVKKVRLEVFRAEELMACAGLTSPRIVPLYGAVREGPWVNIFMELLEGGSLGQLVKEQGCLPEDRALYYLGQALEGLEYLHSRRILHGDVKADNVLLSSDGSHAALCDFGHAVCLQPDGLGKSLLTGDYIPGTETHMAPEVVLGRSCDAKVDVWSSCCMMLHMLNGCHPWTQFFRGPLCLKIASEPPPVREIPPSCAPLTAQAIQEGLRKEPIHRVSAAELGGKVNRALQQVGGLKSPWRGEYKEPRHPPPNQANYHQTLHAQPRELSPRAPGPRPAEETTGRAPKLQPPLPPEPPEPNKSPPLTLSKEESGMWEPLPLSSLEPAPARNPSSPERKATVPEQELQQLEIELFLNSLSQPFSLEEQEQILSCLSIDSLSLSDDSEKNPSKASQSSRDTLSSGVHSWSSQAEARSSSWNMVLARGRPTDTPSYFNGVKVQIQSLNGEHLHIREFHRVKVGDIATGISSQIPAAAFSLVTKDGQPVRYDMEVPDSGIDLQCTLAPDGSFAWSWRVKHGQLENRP
Sequence of UniProt P36896 (whole entry, looked up): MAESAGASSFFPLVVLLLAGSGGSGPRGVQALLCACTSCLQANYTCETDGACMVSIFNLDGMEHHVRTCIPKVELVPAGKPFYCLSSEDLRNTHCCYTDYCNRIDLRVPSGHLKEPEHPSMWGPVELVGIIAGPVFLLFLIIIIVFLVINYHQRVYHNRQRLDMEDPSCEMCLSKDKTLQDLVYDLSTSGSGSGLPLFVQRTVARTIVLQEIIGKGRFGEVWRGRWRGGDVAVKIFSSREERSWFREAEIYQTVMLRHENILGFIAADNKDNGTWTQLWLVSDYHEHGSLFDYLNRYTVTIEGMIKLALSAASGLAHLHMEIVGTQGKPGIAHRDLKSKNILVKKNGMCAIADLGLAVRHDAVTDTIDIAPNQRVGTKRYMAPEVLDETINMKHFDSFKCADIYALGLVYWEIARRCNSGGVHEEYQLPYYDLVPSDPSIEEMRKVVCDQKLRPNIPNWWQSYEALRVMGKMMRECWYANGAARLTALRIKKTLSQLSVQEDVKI
Sequence of UniProt P06239 (whole entry, looked up): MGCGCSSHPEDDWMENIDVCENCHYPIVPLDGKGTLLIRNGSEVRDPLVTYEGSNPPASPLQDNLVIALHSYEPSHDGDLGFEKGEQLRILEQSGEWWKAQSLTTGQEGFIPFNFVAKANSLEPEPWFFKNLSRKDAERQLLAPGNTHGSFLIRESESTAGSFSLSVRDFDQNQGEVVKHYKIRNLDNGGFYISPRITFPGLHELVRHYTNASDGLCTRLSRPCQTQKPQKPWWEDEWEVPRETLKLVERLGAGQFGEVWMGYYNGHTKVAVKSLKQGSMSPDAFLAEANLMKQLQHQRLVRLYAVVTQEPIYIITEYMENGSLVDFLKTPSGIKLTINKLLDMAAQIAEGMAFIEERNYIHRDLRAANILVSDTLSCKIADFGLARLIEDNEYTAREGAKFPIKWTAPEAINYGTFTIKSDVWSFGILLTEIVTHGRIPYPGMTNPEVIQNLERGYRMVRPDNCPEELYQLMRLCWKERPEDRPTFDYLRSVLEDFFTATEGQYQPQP
Sequence of UniProt Q9Y6M4 (whole entry, looked up): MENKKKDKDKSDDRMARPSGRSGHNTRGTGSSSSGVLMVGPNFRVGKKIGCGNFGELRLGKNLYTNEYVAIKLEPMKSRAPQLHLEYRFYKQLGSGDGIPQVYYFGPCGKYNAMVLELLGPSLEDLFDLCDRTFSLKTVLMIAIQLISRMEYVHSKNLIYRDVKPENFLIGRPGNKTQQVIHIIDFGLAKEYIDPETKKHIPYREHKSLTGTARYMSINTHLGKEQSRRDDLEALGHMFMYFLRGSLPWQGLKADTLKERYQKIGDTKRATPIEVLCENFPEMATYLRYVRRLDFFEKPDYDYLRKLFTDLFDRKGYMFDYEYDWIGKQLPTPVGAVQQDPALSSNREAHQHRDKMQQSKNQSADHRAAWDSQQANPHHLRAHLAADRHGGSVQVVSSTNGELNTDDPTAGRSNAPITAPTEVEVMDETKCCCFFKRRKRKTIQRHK
Sequence of UniProt Q9NQU5 (whole entry, looked up): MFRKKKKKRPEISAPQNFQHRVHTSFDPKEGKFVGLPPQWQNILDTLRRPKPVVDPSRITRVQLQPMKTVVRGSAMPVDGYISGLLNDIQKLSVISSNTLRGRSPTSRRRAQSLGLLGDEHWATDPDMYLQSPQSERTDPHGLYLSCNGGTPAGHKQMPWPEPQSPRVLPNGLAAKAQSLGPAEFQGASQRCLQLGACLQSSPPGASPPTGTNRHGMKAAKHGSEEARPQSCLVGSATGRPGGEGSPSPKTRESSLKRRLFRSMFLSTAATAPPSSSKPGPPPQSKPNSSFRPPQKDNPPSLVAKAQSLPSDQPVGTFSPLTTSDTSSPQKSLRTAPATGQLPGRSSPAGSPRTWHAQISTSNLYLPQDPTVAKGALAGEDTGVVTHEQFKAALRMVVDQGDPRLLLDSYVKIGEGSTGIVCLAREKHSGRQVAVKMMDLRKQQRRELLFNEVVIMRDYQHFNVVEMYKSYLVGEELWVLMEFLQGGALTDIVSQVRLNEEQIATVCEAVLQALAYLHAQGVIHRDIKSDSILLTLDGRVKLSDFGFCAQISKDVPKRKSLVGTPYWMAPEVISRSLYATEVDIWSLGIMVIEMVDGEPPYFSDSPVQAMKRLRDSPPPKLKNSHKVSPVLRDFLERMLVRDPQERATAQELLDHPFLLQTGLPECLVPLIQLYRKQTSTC
Sequence of UniProt Q15349 (whole entry, looked up): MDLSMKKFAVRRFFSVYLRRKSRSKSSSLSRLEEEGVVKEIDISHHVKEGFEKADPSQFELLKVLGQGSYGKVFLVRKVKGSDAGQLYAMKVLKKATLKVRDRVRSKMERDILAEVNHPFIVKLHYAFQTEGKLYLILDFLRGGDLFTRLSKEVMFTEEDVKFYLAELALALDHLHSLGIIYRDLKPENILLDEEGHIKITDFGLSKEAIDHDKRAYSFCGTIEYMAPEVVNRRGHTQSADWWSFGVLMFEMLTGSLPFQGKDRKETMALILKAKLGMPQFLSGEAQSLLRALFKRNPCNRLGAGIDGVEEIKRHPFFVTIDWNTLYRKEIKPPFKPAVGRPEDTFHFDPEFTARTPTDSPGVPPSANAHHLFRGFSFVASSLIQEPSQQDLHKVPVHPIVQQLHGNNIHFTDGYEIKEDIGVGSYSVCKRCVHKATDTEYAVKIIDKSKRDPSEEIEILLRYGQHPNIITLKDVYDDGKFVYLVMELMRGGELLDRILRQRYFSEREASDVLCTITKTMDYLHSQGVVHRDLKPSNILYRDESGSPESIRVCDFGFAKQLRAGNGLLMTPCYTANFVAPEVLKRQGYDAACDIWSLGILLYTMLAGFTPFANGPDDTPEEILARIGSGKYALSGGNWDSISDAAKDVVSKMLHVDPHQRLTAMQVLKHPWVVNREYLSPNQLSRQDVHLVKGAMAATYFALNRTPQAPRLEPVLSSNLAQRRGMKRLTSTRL

Sample 1 — organism: Sarcocystis neurona; effect on: parasite activity; tested at: 10 µM; time: 96 h; measurement: activity class
NC(=O)C[S+]([O-])C(c1ccccc1)c1ccccc1 (stereo not drawn): inactive
Cc1nnc2n1-c1ccc(Cl)cc1C(c1ccccc1)=NC2: inactive
CNC1CC(c2ccc(Cl)c(Cl)c2)c2ccccc21 (stereo not drawn): inactive
C[C@]12CC[C@H]3[C@@H](CCC4=CC(=O)CC[C@@]43C)[C@@H]1CC[C@@H]2O: inactive
C[C@]12C/C(=C/O)C(=O)C[C@@H]1CC[C@@H]1[C@@H]2CC[C@@]2(C)[C@H]1CC[C@]2(C)O: inactive
CN1C(=O)CN=C(c2ccccc2)c2cc([N+](=O)[O-])ccc21: inactive
COc1ccc(C(CN(C)C)C2(O)CCCCC2)cc1 (stereo not drawn): inactive
CNCC(O)c1ccc(O)cc1 (stereo not drawn): inactive

Sample 2 — Structure (SMILES): COc1ccc2c(c1)/C(=C/c1cnc[nH]1)C(=O)N2; effect on: enzyme activity; mode: inhibitor; tested at: 0.5 µM; baseline: control; measurement: remaining activity
CSNK1G2 (Homo sapiens, UniProt P78368): 95.3%
ARAF (Homo sapiens, UniProt P10398): 111%
MAP2K2 (Homo sapiens, UniProt P36507): 108%
ULK2 (Homo sapiens, UniProt Q8IYT8): 97.7%
GRK7 (Homo sapiens, UniProt Q8WTQ7): 99.7%
MAPKAPK2 (Homo sapiens, UniProt P49137): 99.4%
CSNK1G3 (Homo sapiens, UniProt Q9Y6M4): 103%
TEK (Homo sapiens, UniProt Q02763): 98.4%
LCK (Homo sapiens, UniProt P06239): 92%
TBK1 (Homo sapiens, UniProt Q9UHD2): 70.7%
FGFR3 (Homo sapiens, UniProt P22607): 65%
ABL2 (Homo sapiens, UniProt P42684): 90.6%
ACVR1B (Homo sapiens, UniProt P36896): 105%
MAP3K14 (Homo sapiens, UniProt Q99558): 96.9%
RPS6KA2 (Homo sapiens, UniProt Q15349): 44.3%
NEK1 (Homo sapiens, UniProt Q96PY6): 84.4%

Sample 3 — effect on: cell-free assay; method: competition with immobilised ligand; tested at: 1 µM; measurement: remaining binding
Compound: Cn1cncc1[C@@](O)(COc1ccc(C#N)cc1-c1ccc(OC(F)(F)F)cc1)c1ccc(C#N)cc1
NIM1K (Homo sapiens, UniProt Q8IY84): 97%
Aurora kinase C (AURKC, Homo sapiens, UniProt Q9UQB9): 90%
MAP3K13 (Homo sapiens, UniProt O43283): 72%
BMP2K (Homo sapiens, UniProt Q9NSY1): 79%
SIK3 (Homo sapiens, UniProt Q9Y2K2): 97%
LTK (Homo sapiens, UniProt P29376): 100%
Tyrosine-protein kinase JAK2, JH1 (JAK2, Homo sapiens, UniProt O60674): 65%
CDK8 (Homo sapiens, UniProt P49336): 100%
HUNK (Homo sapiens, UniProt P57058): 100%
FLT3 (Homo sapiens, UniProt P36888, D835H): 67%
Macrophage colony-stimulating factor 1 receptor, autoinhibited (CSF1R, Homo sapiens, UniProt P07333): 100%
DAPK3 (Homo sapiens, UniProt O43293): 100%
Aurora kinase B (AURKB, Homo sapiens, UniProt Q96GD4): 100%
PAK6 (Homo sapiens, UniProt Q9NQU5): 100%
FLT3 (Homo sapiens, UniProt P36888, D835V): 89%
SGK2 (Homo sapiens, UniProt Q9HBY8): 100%
MAP2K6 (Homo sapiens, UniProt P52564): 94%
TLK1 (Homo sapiens, UniProt Q9UKI8): 100%

Sample 4 — measurement: viability
Compound: CC(C)S(=O)(=O)c1ccc2nccc(Nc3ccc4sc(C5CCCC5)nc4c3)c2c1.Cl
L929; CCK-8; 3.125 µM, together with: zVAD: 112% and 101% and 102% and 96.9%
L929 RIPK3 knockout; 6.25 µM, together with: zVAD: 102% and 104% and 105%
L929 RIPK3 knockout; 6.25 µM: 102% and 105% and 98.9% and 104%
L929; CCK-8; 50 µM, together with: zVAD: 55.6% and 53.7% and 57.1% and 57.2% and 55.3%
L929 RIPK3 knockout; 0.781 µM, together with: zVAD: 102% and 101%
L929 RIPK3 knockout; 0.781 µM: 96% and 96.9% and 104% and 102%
L929 RIPK3 knockout; 50 µM, together with: zVAD: 64.2% and 62.8% and 63.5% and 62.1% and 66.7%
L929; CCK-8; 50 µM: 54.2% and 54.3% and 55.5% and 54.5%
L929; CCK-8; 1.563 µM, together with: zVAD: 97.6% and 105% and 96.9% and 97.9%

For quick reference, copied from above (sample 2):
ARAF (Homo sapiens, UniProt P10398): 111%
MAP2K2 (Homo sapiens, UniProt P36507): 108%
ULK2 (Homo sapiens, UniProt Q8IYT8): 97.7%
GRK7 (Homo sapiens, UniProt Q8WTQ7): 99.7%
MAPKAPK2 (Homo sapiens, UniProt P49137): 99.4%
CSNK1G3 (Homo sapiens, UniProt Q9Y6M4): 103%
TEK (Homo sapiens, UniProt Q02763): 98.4%
